Assay results pooled from the literature.
Lines come from different studies, so protocols differ.
Organism: Pseudomonas aeruginosa

CC(C)(C)Oc1ccc(CC2NC(=O)C(C(=O)NC(C(=O)NC3C(=O)N4C3SC(C)(C)C4C(=O)O)c3ccccc3)=C2O)cc1 (centres unmarked)  MIC (pvdA mutant): 6.25 µg/mL
CC[C@H](C)[C@H](NC(=O)[C@H](CC(C)C)NC(=O)[C@H](CCCCN)NC(=O)[C@H](CC(C)C)NC(=O)CNC(=O)[C@@H](NC(=O)[C@H](CO)NC(=O)[C@@H](NC(=O)[C@@H](NC(=O)[C@H](CCC(N)=O)NC(=O)[C@H](Cc1c[nH]c2ccccc12)NC(=O)[C@H](CCCNC(=N)N)NC(=O)[C@H](CC(N)=O)NC(=O)[C@H](CCCNC(=N)N)NC(=O)[C@H](CCCNC(=N)N)NC(=O)[C@@H](NC(=O)[C@H](Cc1ccccc1)NC(=O)[C@H](CCCNC(=N)N)NC(=O)CNC(=O)[C@H](C)NC(=O)[C@H](CCCNC(=N)N)NC(=O)[C@H](CCCNC(=N)N)NC(=O)[C@H](CCCCN)NC(=O)[C@H](Cc1ccccc1)NC(=O)[C@H](CCCNC(=N)N)NC(=O)CNC(=O)[C@H](Cc1c[nH]c2ccccc12)NC(=O)[C@H](CCCNC(=N)N)NC(=O)CNC(=O)[C@H](CCCNC(=N)N)NC(=O)[C@@H](N)[C@@H](C)O)[C@@H](C)CC)[C@@H](C)CC)[C@@H](C)CC)[C@@H](C)O)C(=O)NCC(=O)O  MIC (CMCC 10104; highest concentration 50 µM): 4.79 µM
C[C@@H](O)[C@H]1C(=O)N2C(C(=O)O)=C(S[C@@H]3CN[C@H](C(=O)N(C)C)C3)[C@H](C)[C@H]12  MIC (1191191, multidrug-resistant): > 8 µg/mL
CC1(C)SC2C(NC(=O)C(NC(=O)C3=C(O)C(Cc4ccccc4)NC3=O)c3ccccc3)C(=O)N2C1C(=O)O (centres unmarked)  MIC (pvdS mutant): 25 µg/mL
CC[C@H](C)[C@H](N)C(=O)N[C@@H](CC(C)C)C(=O)NCC(=O)N[C@@H](CCC(=O)O)C(=O)N[C@H](C(=O)N[C@@H](Cc1c[nH]c2ccccc12)C(=O)N[C@@H](CCCCN)C(=O)NCC(=O)N[C@H](C(=O)N[C@@H](CCCCN)C(=O)N[C@@H](CC(=O)O)C(=O)N[C@H](C(=O)N[C@@H](CC(C)C)C(N)=O)[C@@H](C)CC)[C@@H](C)CC)[C@@H](C)CC  MIC (broth microdilution; ATCC BAA-427, Mueller-Hinton broth; 16 h, 37 °C): > 100 µM
CC(C)C[C@H](NC(=O)[C@H](Cc1c[nH]c2ccccc12)NC(=O)[C@H](CC(C)C)NC(=O)[C@@H](NC(=O)[C@H](CC(C)C)NC(=O)[C@H](CCCNC(=N)N)NC(=O)[C@@H](N)CCCNC(=N)N)[C@@H](C)O)C(=O)N[C@H](C(=O)N[C@@H](CC(C)C)C(=O)N[C@@H](CCCNC(=N)N)C(=O)N[C@@H](CCCNC(=N)N)C(N)=O)[C@@H](C)O  MIC (broth microdilution; 27853, Mueller-Hinton broth; 24 h, 37 °C, lowest concentration, 95% inhibition, added: BSA): 4 µM
CC1(C)S[C@@H]2[C@H](NC(=O)[C@H](N)c3ccccc3)C(=O)N2[C@H]1C(=O)O  MIC (pvdA mutant): 200 µg/mL
CC[C@H](C)[C@H](NC(=O)[C@H](CC(C)C)NC(=O)[C@@H](NC(=O)[C@@H](NC(=O)[C@@H](NC(=O)[C@H](CCCNC(=N)N)NC(=O)[C@H](CCCNC(=N)N)NC(=O)[C@H](CCCNC(=N)N)NC(=O)[C@@H](N)CCCNC(=N)N)C(C)C)[C@@H](C)CC)[C@@H](C)CC)C(=O)N[C@@H](CO)C(=O)N[C@@H](CC(C)C)C(=O)N[C@@H](CCCNC(=N)N)C(=O)N[C@@H](CCCNC(=N)N)C(=O)N[C@@H](CCCNC(=N)N)C(=O)N[C@@H](CCCNC(=N)N)C(=O)N[C@@H](Cc1ccccc1)C(=O)N[C@@H](CO)C(=O)N[C@@H](C)C(=O)N[C@@H](Cc1ccc(O)cc1)C(N)=O  MIC (broth microdilution; ATCC 27853; highest value reported): 8 µM
CC[C@H](C)[C@H](NC(=O)CNC(=O)[C@H](CC(=O)O)NC(=O)[C@H](CCCNC(=N)N)NC(=O)[C@@H](NC(=O)[C@H](CC(N)=O)NC(=O)[C@H](CCCNC(=N)N)NC(=O)CNC(=O)[C@@H](NC(=O)[C@H](CCCCN)NC(=O)[C@H](CCC(=O)O)NC(=O)[C@@H](NC(=O)[C@H](CCCCN)NC(=O)[C@H](CCCCN)NC(=O)[C@H](Cc1ccccc1)NC(=O)[C@@H](NC(=O)[C@H](CCCCN)NC(=O)[C@H](Cc1c[nH]c2ccccc12)NC(=O)[C@@H](N)CCCNC(=N)N)[C@@H](C)CC)[C@@H](C)CC)C(C)C)C(C)C)C(=O)N[C@H](C(=O)N[C@@H](CCCCN)C(=O)N[C@@H](C)C(=O)NCC(=O)N1CCC[C@H]1C(=O)N[C@@H](C)C(=O)N[C@H](C(=O)N[C@@H](C)C(=O)N[C@H](C(=O)N[C@H](C(=O)NCC(=O)N[C@@H](CCC(N)=O)C(=O)N[C@@H](C)C(=O)N[C@@H](C)C(=O)N[C@H](C(=O)N[C@H](C(=O)N[C@H](C(=O)N[C@@H](CCC(=O)O)C(N)=O)C(C)C)C(C)C)[C@@H](C)O)C(C)C)C(C)C)C(C)C)[C@@H](C)CC  MIC (KCCM 11328, Mueller-Hinton broth; 16 h, 37 °C; growth inhibition over 99%): 16 µM
CC(C)C[C@H](NC(=O)[C@@H](NC(=O)[C@H](CCCNC(=N)N)NC(=O)[C@H](CCC(N)=O)NC(=O)[C@H](Cc1ccccc1)NC(=O)[C@H](Cc1ccc(O)cc1)NC(=O)[C@H](CC(N)=O)NC(=O)[C@H](Cc1c[nH]c2ccccc12)NC(=O)[C@@H](NC(=O)[C@H](CCCNC(=N)N)NC(=O)[C@H](CCCCN)NC(=O)[C@@H](N)Cc1ccccc1)C(C)C)C(C)C)C(=O)N[C@H](C(=O)N[C@@H](CCCCN)C(=O)N[C@@H](CCCCN)C(=O)N[C@@H](Cc1ccc(O)cc1)C(=O)N[C@@H](C)C(N)=O)C(C)C  MIC (broth dilution; ATCC 27853): > 100 µM
CC1(C)SC2C(NC(=O)C(NC(=O)C3=C(O)CN(c4ccccc4)C3=O)c3ccccc3)C(=O)N2C1C(=O)O (centres unmarked)  MIC (fptA mutant): 50 µg/mL
O=C(O)CN(CC(=O)O)CC(=O)O  MIC (IMP-7 producer; 32 µg/mL, MIC of meropenem, added: meropenem): 16 µg/mL
N=C(N)NCCC[C@H](NC(=O)[C@H](Cc1c[nH]c2ccccc12)NC(=O)[C@H](CCCNC(=N)N)NC(=O)[C@@H](N)Cc1c[nH]c2ccccc12)C(=O)N[C@@H](Cc1ccccc1)C(=O)N[C@@H](CCC(N)=O)C(=O)N[C@@H](Cc1ccccc1)C(=O)N[C@@H](CCC(N)=O)C(=O)N[C@@H](Cc1ccccc1)C(=O)N[C@@H](CCCCN)C(N)=O  MIC (broth microdilution, optical density): 280 µM
CC[C@H](C)[C@H](NC(=O)[C@H](CC(C)C)NC(=O)[C@H](CCCNC(=N)N)NC(=O)[C@@H](N)CCCNC(=N)N)C(=O)N[C@@H](CCCNC(=N)N)C(=O)N[C@@H](CCCCN)C(=O)N[C@@H](CC(C)C)C(=O)N[C@@H](CCCCN)C(=O)NCC(=O)N1CCC[C@H]1C(=O)N[C@@H](CCCCN)C(=O)N[C@H](C(=O)N[C@@H](Cc1ccc(O)cc1)C(=O)N[C@@H](CC(C)C)C(=O)N[C@@H](Cc1ccc(O)cc1)C(=O)N[C@@H](Cc1ccccc1)C(=O)N[C@@H](CCCCN)C(=O)N[C@@H](CC(C)C)C(=O)N[C@@H](CCC(N)=O)C(=O)N[C@@H](CC(C)C)C(=O)N[C@@H](CC(C)C)C(=O)N[C@@H](CCCCN)C(=O)N[C@@H](CCCCN)C(N)=O)[C@@H](C)CC  MIC (KCTC 1637, Mueller-Hinton broth; 24 h): 16 µM

For quick reference, copied from above:
CC[C@H](C)[C@H](NC(=O)[C@H](CC(C)C)NC(=O)[C@@H](NC(=O)[C@@H](NC(=O)[C@@H](NC(=O)[C@H](CCCNC(=N)N)NC(=O)[C@H](CCCNC(=N)N)NC(=O)[C@H](CCCNC(=N)N)NC(=O)[C@@H](N)CCCNC(=N)N)C(C)C)[C@@H](C)CC)[C@@H](C)CC)C(=O)N[C@@H](CO)C(=O)N[C@@H](CC(C)C)C(=O)N[C@@H](CCCNC(=N)N)C(=O)N[C@@H](CCCNC(=N)N)C(=O)N[C@@H](CCCNC(=N)N)C(=O)N[C@@H](CCCNC(=N)N)C(=O)N[C@@H](Cc1ccccc1)C(=O)N[C@@H](CO)C(=O)N[C@@H](C)C(=O)N[C@@H](Cc1ccc(O)cc1)C(N)=O  MIC (broth microdilution; ATCC 27853; highest value reported): 8 µM
C[C@@H](O)[C@H]1C(=O)N2C(C(=O)O)=C(S[C@@H]3CN[C@H](C(=O)N(C)C)C3)[C@H](C)[C@H]12  MIC (1191191, multidrug-resistant): > 8 µg/mL
